Measurements from different studies.
A part holds a random share of what one study measured.
UniProt P30530, sequence (whole entry, looked up): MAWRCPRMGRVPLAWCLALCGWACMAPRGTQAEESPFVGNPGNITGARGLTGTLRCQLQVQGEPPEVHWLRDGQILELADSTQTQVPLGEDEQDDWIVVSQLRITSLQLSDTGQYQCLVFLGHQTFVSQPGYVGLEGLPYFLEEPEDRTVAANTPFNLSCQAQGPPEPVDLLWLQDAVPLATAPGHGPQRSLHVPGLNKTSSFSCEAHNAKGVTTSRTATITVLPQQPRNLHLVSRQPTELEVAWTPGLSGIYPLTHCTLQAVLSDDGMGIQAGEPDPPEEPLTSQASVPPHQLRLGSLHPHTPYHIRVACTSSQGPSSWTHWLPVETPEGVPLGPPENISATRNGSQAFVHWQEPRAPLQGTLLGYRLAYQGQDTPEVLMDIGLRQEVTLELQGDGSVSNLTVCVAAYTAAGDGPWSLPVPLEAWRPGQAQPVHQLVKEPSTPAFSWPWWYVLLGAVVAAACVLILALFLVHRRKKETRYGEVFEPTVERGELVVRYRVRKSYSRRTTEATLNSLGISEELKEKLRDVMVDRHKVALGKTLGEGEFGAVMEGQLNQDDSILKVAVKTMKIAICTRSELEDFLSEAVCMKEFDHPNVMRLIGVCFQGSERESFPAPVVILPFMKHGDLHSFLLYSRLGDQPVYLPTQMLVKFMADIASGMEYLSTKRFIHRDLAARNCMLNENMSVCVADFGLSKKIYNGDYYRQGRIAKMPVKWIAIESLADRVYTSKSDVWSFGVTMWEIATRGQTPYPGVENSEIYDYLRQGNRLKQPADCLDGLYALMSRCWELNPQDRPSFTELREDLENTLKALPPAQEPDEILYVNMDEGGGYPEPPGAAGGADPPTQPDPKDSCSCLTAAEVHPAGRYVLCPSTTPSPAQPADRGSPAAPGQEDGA
UniProt Q13554, sequence (whole entry, looked up): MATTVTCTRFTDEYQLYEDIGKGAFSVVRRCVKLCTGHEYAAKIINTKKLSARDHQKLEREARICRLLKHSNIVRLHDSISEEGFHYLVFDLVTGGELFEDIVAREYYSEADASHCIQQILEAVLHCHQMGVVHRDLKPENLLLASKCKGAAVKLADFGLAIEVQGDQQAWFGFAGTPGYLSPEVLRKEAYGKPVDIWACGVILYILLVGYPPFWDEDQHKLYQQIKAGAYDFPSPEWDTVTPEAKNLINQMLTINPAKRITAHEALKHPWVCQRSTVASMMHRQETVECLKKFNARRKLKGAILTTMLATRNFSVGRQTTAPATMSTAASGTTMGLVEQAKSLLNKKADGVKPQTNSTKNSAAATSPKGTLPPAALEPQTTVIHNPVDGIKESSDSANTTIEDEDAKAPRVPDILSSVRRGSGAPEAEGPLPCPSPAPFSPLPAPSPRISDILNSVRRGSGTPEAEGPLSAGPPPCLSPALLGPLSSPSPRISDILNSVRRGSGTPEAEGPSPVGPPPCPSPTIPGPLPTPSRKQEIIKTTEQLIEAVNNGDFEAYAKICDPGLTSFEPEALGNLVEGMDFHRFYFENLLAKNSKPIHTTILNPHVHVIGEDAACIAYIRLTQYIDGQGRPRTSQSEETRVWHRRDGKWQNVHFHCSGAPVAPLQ
UniProt O14936, sequence (whole entry, looked up): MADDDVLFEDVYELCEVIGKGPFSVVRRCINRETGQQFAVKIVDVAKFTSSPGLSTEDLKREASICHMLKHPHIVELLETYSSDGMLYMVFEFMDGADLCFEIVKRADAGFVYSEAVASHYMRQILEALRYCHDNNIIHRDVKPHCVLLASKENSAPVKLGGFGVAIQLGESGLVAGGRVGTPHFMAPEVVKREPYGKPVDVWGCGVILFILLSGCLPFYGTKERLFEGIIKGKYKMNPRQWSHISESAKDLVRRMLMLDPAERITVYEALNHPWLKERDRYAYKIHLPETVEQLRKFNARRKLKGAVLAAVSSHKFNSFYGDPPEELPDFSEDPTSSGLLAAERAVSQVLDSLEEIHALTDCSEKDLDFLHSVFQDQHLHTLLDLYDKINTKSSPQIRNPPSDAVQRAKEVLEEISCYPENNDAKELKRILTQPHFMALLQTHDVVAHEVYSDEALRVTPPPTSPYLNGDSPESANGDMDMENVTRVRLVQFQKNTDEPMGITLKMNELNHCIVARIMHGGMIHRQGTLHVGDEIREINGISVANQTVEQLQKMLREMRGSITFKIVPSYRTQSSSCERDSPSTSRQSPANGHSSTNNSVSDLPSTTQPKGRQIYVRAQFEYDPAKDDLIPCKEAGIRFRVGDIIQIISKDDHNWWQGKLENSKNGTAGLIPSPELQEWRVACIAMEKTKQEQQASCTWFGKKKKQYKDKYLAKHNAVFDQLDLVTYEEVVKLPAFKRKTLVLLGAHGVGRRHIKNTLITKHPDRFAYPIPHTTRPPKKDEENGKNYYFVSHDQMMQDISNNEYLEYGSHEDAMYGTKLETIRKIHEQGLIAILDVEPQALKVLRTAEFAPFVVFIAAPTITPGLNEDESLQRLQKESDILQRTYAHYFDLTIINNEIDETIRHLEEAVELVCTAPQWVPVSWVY
UniProt P36507, sequence (whole entry, looked up): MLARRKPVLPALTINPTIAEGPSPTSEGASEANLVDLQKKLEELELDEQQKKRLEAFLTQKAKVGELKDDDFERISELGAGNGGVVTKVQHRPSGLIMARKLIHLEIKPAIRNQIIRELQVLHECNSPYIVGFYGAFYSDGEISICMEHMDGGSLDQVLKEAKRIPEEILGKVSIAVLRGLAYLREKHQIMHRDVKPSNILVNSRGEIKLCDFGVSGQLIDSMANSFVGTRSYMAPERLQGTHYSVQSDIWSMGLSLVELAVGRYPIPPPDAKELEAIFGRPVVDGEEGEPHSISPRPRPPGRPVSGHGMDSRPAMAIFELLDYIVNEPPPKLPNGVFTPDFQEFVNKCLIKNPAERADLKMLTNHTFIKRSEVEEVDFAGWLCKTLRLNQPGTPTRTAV
UniProt Q9BWU1, sequence (whole entry, looked up): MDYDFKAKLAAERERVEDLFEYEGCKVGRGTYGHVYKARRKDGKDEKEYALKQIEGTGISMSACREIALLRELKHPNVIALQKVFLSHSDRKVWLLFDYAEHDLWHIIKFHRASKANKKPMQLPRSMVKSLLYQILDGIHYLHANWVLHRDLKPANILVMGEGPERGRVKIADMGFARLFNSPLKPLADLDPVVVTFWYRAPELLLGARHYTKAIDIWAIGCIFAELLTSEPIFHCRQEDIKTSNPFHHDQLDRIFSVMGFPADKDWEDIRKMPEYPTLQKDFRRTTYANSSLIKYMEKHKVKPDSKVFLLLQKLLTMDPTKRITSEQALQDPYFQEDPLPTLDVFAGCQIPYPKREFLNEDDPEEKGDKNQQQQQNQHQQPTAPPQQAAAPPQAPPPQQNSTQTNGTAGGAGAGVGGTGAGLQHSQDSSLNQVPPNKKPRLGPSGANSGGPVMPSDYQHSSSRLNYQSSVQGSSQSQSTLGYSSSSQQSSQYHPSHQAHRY
UniProt O95819, sequence (whole entry, looked up): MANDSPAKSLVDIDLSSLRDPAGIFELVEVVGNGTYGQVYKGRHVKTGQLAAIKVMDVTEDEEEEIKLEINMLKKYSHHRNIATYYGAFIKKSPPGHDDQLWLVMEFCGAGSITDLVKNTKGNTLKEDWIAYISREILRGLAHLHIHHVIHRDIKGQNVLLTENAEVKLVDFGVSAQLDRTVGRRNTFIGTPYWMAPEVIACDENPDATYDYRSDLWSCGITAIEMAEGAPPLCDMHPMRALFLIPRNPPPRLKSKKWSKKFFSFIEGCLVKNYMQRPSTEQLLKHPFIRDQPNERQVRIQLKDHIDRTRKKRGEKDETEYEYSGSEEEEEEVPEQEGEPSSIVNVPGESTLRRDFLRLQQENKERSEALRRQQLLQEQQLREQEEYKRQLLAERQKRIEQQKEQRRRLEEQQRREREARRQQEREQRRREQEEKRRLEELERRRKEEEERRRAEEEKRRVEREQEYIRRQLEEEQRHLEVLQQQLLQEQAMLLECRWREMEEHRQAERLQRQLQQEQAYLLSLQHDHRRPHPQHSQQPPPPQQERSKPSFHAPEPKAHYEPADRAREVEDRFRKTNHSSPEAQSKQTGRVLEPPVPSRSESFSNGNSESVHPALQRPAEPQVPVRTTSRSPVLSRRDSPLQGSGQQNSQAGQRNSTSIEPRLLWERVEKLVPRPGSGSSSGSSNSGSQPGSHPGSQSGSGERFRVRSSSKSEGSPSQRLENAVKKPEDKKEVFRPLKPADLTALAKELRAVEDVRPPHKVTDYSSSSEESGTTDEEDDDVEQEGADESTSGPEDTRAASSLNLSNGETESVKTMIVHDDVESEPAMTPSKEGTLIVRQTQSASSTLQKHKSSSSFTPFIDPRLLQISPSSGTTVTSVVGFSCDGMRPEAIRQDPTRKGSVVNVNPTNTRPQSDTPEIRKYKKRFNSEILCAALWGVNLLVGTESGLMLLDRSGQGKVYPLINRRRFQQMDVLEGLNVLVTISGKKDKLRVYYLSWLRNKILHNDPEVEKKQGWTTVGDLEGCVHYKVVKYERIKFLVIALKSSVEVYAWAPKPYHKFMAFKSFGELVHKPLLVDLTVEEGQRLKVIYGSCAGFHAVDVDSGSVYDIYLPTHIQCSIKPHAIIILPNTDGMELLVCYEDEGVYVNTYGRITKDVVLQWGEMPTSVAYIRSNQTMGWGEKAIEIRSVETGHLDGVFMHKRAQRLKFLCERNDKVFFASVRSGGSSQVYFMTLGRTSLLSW
UniProt P11802, sequence (whole entry, looked up): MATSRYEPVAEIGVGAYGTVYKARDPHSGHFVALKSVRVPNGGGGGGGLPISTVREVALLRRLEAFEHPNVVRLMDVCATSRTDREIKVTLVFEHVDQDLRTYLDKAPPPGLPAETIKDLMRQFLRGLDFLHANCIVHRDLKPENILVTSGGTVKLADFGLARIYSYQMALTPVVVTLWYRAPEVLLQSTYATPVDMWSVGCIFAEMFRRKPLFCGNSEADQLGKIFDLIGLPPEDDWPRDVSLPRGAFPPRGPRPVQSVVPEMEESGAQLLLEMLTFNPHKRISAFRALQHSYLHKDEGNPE

Series 1
SMILES: O=c1cc(N2CCOCC2)oc2c1ccc1ccccc12
Effect on: enzyme activity
Mode: inhibitor
Concentration: 0.5 µM
Baseline: control
The remaining activity was 104% (EPHB1 (Homo sapiens, UniProt P54762)).
It gave 95.4% for remaining activity (RPS6KA6 (Homo sapiens, UniProt Q9UK32)).
Cyclin-dependent kinase 4, with cyclin D3 (CDK4, Homo sapiens, UniProt P11802) — remaining activity: 96.8%.
It gave 89.3% for remaining activity (MAP4K4 (Homo sapiens, UniProt O95819)).
It gave 98.1% for remaining activity (CAMK2B (Homo sapiens, UniProt Q13554)).
It gave 99% for remaining activity (STK16 (Homo sapiens, UniProt O75716)).
For TSSK2 (Homo sapiens, UniProt Q96PF2): remaining activity read 100%.
The remaining activity was 101% (HIPK4 (Homo sapiens, UniProt Q8NE63)).
It gave 96.3% for remaining activity (EPHB4 (Homo sapiens, UniProt P54760)).
For Cyclin-dependent kinase 1, with cyclin B (CDK1, Homo sapiens, UniProt P06493): remaining activity read 85.5%.
The remaining activity was 97.1% (SRMS (Homo sapiens, UniProt Q9H3Y6)).
RPS6KA5 (Homo sapiens, UniProt O75582) — remaining activity: 103%.
The remaining activity was 104% (BLK (Homo sapiens, UniProt P51451)).
For Cyclin-dependent kinase 6, with cyclin D3 (CDK6, Homo sapiens, UniProt Q00534): remaining activity read 95.1%.
PDPK1 (Homo sapiens, UniProt O15530) — remaining activity: 109%.
It gave 94.6% for remaining activity (STK17A (Homo sapiens, UniProt Q9UEE5)).
For EPHA4 (Homo sapiens, UniProt P54764): remaining activity read 94.4%.
The remaining activity was 104% (ABL1 (Homo sapiens, UniProt P00519)).
For MAPKAPK3 (Homo sapiens, UniProt Q16644): remaining activity read 105%.
PHKG1 (Homo sapiens, UniProt Q16816) — remaining activity: 98.2%.
AXL (Homo sapiens, UniProt P30530) — remaining activity: 98.1%.
It gave 97.5% for remaining activity (WNK3 (Homo sapiens, UniProt Q9BYP7)).
The remaining activity was 105% (HIPK2 (Homo sapiens, UniProt Q9H2X6)).

Series 2
Cell line: HaCaT
Concentration: 100 µM
Time: 60 h
The viability of `C[C@H](CCC(=O)NCCS(=O)(=O)O)[C@H]1CC[C@H]2[C@@H]3[C@@H](O)C[C@@H]4C[C@H](O)CC[C@]4(C)[C@H]3CC[C@]12C` is reported as 119%.
The viability of `CC(C)(C)NCC(O)COc1cccc2c1CCC(=O)N2` (stereo not drawn) is reported as 145%.
With `C[N+](C)(C)CC(=O)O` the viability was 140%.
`CN(C)c1ccc(C(=C2C=CC(=[N+](C)C)C=C2)c2ccc(N(C)C)cc2)cc1` gave a viability of 21.6%.
The viability of `c1ccc(CC2=NCCN2)cc1` is reported as 124%.
`Cc1c(Nc2ncccc2C(=O)O)cccc1C(F)(F)F` gave a viability of 117%.
The viability of `Cc1ccc(=O)n(-c2ccccc2)c1` is reported as 140%.
For `CC(C[N+](C)(C)C)OC(N)=O` (stereo not drawn), the viability was 136%.
For `Cc1ncc([N+](=O)[O-])n1CC(C)O` (stereo not drawn), the viability was 141%.
The viability of `C/C(O)=C(\C#N)C(=O)Nc1ccc(C(F)(F)F)cc1` is reported as 62.4%.
`Cc1c(C(=O)Nc2ccc(N3C[C@@H](C)O[C@@H](C)C3)nc2)cccc1-c1ccc(OC(F)(F)F)cc1` has a viability of 17.5%.

Series 3
Medium: 1,9-decadiene/PBS
pH: 7.4
`CC(C)C[C@@H]1NC(=O)[C@H](C)NC(=O)[C@@H](CC(C)C)NC(=O)[C@H](CC(C)C)NC(=O)[C@@H](CCC(=O)N2CCCC2)NC(=O)[C@H](CC(C)C)NC(=O)[C@@H](CC(C)C)NC1=O` has a logD of -0.154.
With `CC(C)C[C@@H]1NC(=O)[C@H](CC(C)C)NC(=O)[C@H](CC(C)C)NC(=O)[C@H](CC(C)C)NC(=O)[C@H](C(C)C)NC(=O)[C@H](Cc2cscn2)NC(=O)[C@H](C)NC1=O` the logD was 0.266.
The logD of `CC(C)C[C@@H]1NC(=O)[C@H](C)NC(=O)[C@@H](CC(C)C)NC(=O)[C@H](C)NC(=O)[C@H](CC(C)C)NC(=O)[C@H](CC(C)C)NC(=O)[C@@H](C(C)C)NC1=O` is reported as -0.169.
The logD of `CC(C)C[C@@H]1NC(=O)[C@H](CC(C)C)NC(=O)[C@@H](CC(C)C)NC(=O)[C@H](C)NC(=O)[C@@H](CCC(=O)N2CCCC2)NC(=O)[C@H](C)NC(=O)[C@H](C)NC1=O` is reported as -3.7.
`CC(C)C[C@@H]1NC(=O)[C@H](C)NC(=O)[C@H](CCC(=O)N2CCCC2)NC(=O)[C@H](CC(C)C)NC(=O)[C@@H](CCC(=O)N2CCCC2)NC(=O)[C@H](CC(C)C)NC(=O)[C@@H](CC(C)C)NC1=O` has a logD of -1.94.
With `CC(C)C[C@@H]1NC(=O)[C@@H](C)NC(=O)[C@@H](CC(C)C)NC(=O)[C@@H](CC(C)C)NC(=O)[C@H](C(C)C)NC(=O)[C@H](CC(C)C)NC(=O)[C@@H](CC(C)C)NC1=O` the logD was 1.13.
With `CC(C)C[C@@H]1NC(=O)[C@H](CC(C)C)NC(=O)[C@@H](C(C)C)NC(=O)[C@H](C(C)C)NC(=O)[C@@H](Cc2cscn2)NC(=O)[C@H](C)NC(=O)[C@H](CCC(=O)N2CCCC2)NC1=O` the logD was -2.84.
The logD of `CC(C)C[C@@H]1NC(=O)[C@H](C(C)C)NC(=O)[C@H](Cc2cscn2)NC(=O)[C@@H](CC(C)C)NC(=O)[C@@H](CCC(=O)N2CCCC2)NC(=O)[C@H](CC(C)C)NC(=O)[C@@H](CC(C)C)NC1=O` is reported as -0.525.

Series 4
Compound: O=C(N[C@H]1CCCCC/C=C\C2C[C@@]2(C(=O)O)NC(=O)[C@@H]2C[C@@H](Oc3ccncc3)CN2C1=O)OC1CCCC1 (stereo partly drawn)
Concentration: 1 µM
The remaining binding was 89% (CASK (Homo sapiens, UniProt O14936); binding, competition with immobilised ligand).
The remaining binding was 100% (EPHA7 (Homo sapiens, UniProt Q15375); cell-free assay, competition with immobilised ligand).
For PLK2 (Homo sapiens, UniProt Q9NYY3); binding, competition with immobilised ligand: remaining binding read 93%.
For ABL2 (Homo sapiens, UniProt P42684); binding, competition with immobilised ligand: remaining binding read 100%.
EPHA8 (Homo sapiens, UniProt P29322); cell-free assay, competition with immobilised ligand — remaining binding: 100%.
The remaining binding was 99% (STK10 (Homo sapiens, UniProt O94804); binding, competition with immobilised ligand).
For AAK1 (Homo sapiens, UniProt Q2M2I8); binding: remaining binding read 77%.
The remaining binding was 80% (ERN1 (Homo sapiens, UniProt O75460); cell-free assay, competition with immobilised ligand).
The remaining binding was 90% (CDK13 (Homo sapiens, UniProt Q14004); binding, competition with immobilised ligand).
It gave 91% for remaining binding (CDK19 (Homo sapiens, UniProt Q9BWU1); competition binding).
It gave 87% for remaining binding (MAP2K2 (Homo sapiens, UniProt P36507); binding, competition with immobilised ligand).
CAMK1G (Homo sapiens, UniProt Q96NX5); binding, competition with immobilised ligand — remaining binding: 76%.
It gave 89% for remaining binding (MAP2K5 (Homo sapiens, UniProt Q13163); binding, competition with immobilised ligand).
For FGFR1 (Homo sapiens, UniProt P11362); cell-free assay, competition with immobilised ligand: remaining binding read 100%.
For RAF1 (Homo sapiens, UniProt P04049); binding, competition with immobilised ligand: remaining binding read 100%.
The remaining binding was 98% (PIK3CA (Homo sapiens, UniProt P42336); binding, competition with immobilised ligand).
BMPR1B (Homo sapiens, UniProt O00238); cell-free assay, competition with immobilised ligand — remaining binding: 95%.
MAP3K9 (Homo sapiens, UniProt P80192); binding, competition with immobilised ligand — remaining binding: 97%.
It gave 100% for remaining binding (NEK9 (Homo sapiens, UniProt Q8TD19); binding, competition with immobilised ligand).
It gave 100% for remaining binding (CHEK2 (Homo sapiens, UniProt O96017); binding, competition with immobilised ligand).
It gave 95% for remaining binding (AXL (Homo sapiens, UniProt P30530); binding, competition with immobilised ligand).

Excerpt of the above (series 3):
`CC(C)C[C@@H]1NC(=O)[C@H](C)NC(=O)[C@@H](CC(C)C)NC(=O)[C@H](CC(C)C)NC(=O)[C@@H](CCC(=O)N2CCCC2)NC(=O)[C@H](CC(C)C)NC(=O)[C@@H](CC(C)C)NC1=O` has a logD of -0.154.
With `CC(C)C[C@@H]1NC(=O)[C@H](CC(C)C)NC(=O)[C@H](CC(C)C)NC(=O)[C@H](CC(C)C)NC(=O)[C@H](C(C)C)NC(=O)[C@H](Cc2cscn2)NC(=O)[C@H](C)NC1=O` the logD was 0.266.
The logD of `CC(C)C[C@@H]1NC(=O)[C@H](C)NC(=O)[C@@H](CC(C)C)NC(=O)[C@H](C)NC(=O)[C@H](CC(C)C)NC(=O)[C@H](CC(C)C)NC(=O)[C@@H](C(C)C)NC1=O` is reported as -0.169.
The logD of `CC(C)C[C@@H]1NC(=O)[C@H](CC(C)C)NC(=O)[C@@H](CC(C)C)NC(=O)[C@H](C)NC(=O)[C@@H](CCC(=O)N2CCCC2)NC(=O)[C@H](C)NC(=O)[C@H](C)NC1=O` is reported as -3.7.
`CC(C)C[C@@H]1NC(=O)[C@H](C)NC(=O)[C@H](CCC(=O)N2CCCC2)NC(=O)[C@H](CC(C)C)NC(=O)[C@@H](CCC(=O)N2CCCC2)NC(=O)[C@H](CC(C)C)NC(=O)[C@@H](CC(C)C)NC1=O` has a logD of -1.94.
With `CC(C)C[C@@H]1NC(=O)[C@@H](C)NC(=O)[C@@H](CC(C)C)NC(=O)[C@@H](CC(C)C)NC(=O)[C@H](C(C)C)NC(=O)[C@H](CC(C)C)NC(=O)[C@@H](CC(C)C)NC1=O` the logD was 1.13.
With `CC(C)C[C@@H]1NC(=O)[C@H](CC(C)C)NC(=O)[C@@H](C(C)C)NC(=O)[C@H](C(C)C)NC(=O)[C@@H](Cc2cscn2)NC(=O)[C@H](C)NC(=O)[C@H](CCC(=O)N2CCCC2)NC1=O` the logD was -2.84.
The logD of `CC(C)C[C@@H]1NC(=O)[C@H](C(C)C)NC(=O)[C@H](Cc2cscn2)NC(=O)[C@@H](CC(C)C)NC(=O)[C@@H](CCC(=O)N2CCCC2)NC(=O)[C@H](CC(C)C)NC(=O)[C@@H](CC(C)C)NC1=O` is reported as -0.525.
